Results from different studies.
Protocols differ between the studies behind these lines. “And” joins repeats or separate records; there may be more than shown. ± marks the error that the study gave.

Cn1c(=O)n(C2CCC(=O)NC2=O)c2ccc(C3CCN(CC(=O)Nc4cccc(CS(=O)(=O)N5CC[C@H](Nc6cccc(-c7sc(C(=O)O)c(OCC(=O)O)c7Cl)c6)CC5(C)C)c4)CC3)cc21 (stereo partly drawn) — fold change (B16-F10; HTRF, measured: phospho-STAT1 Tyr701; 0.014 µM, added: IFN-γ; reference: DMSO): 2.48 and 2.05 and 2.35 and 1.95 and 1.99
C=C1C(=O)OC2C1CCC(C)(O)C13C=CC(C)(C21)C1(C3)C(=O)OC2C3C(=C(C)CC(OC(C)=O)C21)CC(Cl)C3(C)O (stereo not drawn) — maximum inhibition (AML12 mouse hepatocytes; lipid accumulation, Nile Red staining; maximum safe concentration, 24 h, added: palmitic acid/oleic acid): 14.3 ± 1.82%
CCN(CC)CC(=O)Nc1cccc(-n2cc(-c3ccc4ccc(-c5cn(-c6cccc(NC(=O)CN(CC)CC)c6)nn5)cc4c3)nn2)c1 — fold regulation (RCC4; PCR angiogenesis array, measured: FN1; 5 x IC50, 6 h, normoxia; reference: untreated): -1.84
CN1CCCNC(=O)c2cccc(c2)C(=O)NCCCN(C)CCCNc2cccc3c2C(=O)c2cccc(c2C3=O)NCCC1 — log2 fold change (SAS; RNA-seq, measured: TES mRNA; 1 µM, 6 h; reference: untreated cells): -0.365
Cc1ccc(-n2cc(CSc3nc4ccccc4n3Cc3cn(-c4ccc(C)cc4)nn3)nn2)cc1 — cytotoxicity (MDA-MB-231; MTT; 250 ppm): 92.6%
CC(C)c1ccc(N(C)c2ccc3c(c2)OCC[C@H]3CNc2cnccc2C(=O)O)cc1 — IC50 (Lu-65; cell growth or viability, ATP luminescence; 7 days): 10.6 nM
COc1cccc(OC)c1-c1cc(C(=O)NC2(C(=O)O)C3CC4CC(C3)CC2C4)nn1-c1ccc(C(=O)N(C)CCOCCOCCN(C)C(=O)[C@H](CCCCNC(=O)[C@H](CC(C)C)NC(=O)C2OC2C(=O)O)NC(=O)CN2CCN(CC(=O)[O-])CCN(CC(=O)[O-])CCN(CC(=O)[O-])CC2)cc1C(C)C.[177Lu+3] (mixture of isomers) — surface-bound fraction (HT-29; concentration not given, 60 min; reference: added activity): 0.66 ± 0.04%
CSCC[C@@H]1NC(=O)[C@H](CC(N)=O)NC(=O)[C@@H](NC(=O)CCOCCOCCOCCNC(=O)CN2CCN(CC(=O)O)CCN(CC(=O)O)CC2)CSSC[C@@H](C(=O)O)NC(=O)[C@H](C(C)C)NC(=O)[C@H](CCSC)NC(=O)[C@@H]2CCCN2C(=O)[C@H]([C@@H](C)O)NC(=O)[C@H](Cc2c[nH]cn2)NC1=O [gallium-68 labelled] — cell uptake (activated human PBMCs; 60 min): 3.14 ± 0.42%
O=C(C[Se]C(=O)c1ccccc1Nc1cccc(C(F)(F)F)c1)Nc1cccc(C(F)(F)F)c1 — GI50 (NCI60 CNS cancer panel; five-dose screen): 1760 nM
C=C1C(=O)OC2C1CCC(C)(O)C13C=CC(C)(C21)C1(C3)C(=O)OC2C3C(C)C(=O)CC3C(=C)CC(OC(C)=O)C21 (stereo not drawn) — NEFA content (AML12; concentration not given, concentration-dependent, added: palmitate/oleate): decreased
COc1ccccc1-c1ccncc1C(=O)Nc1nnc(OCc2ccc(Cl)cc2)s1 — change in MMEJ frequency (U2OS EJ2-GFP; EJ2-GFP reporter, GFP+/dsRed+ ratio; 10 µM, added: I-SceI transfection; reference: DMSO): 13.5% and 6.7%
CCCC[C@H](N)C(=O)N[C@H]1CSCc2ccc(cc2)-c2ccc(cc2)CSC[C@@H](C(=O)N[C@H](C(N)=O)[C@@H](C)O)NC(=O)[C@H](CCCCN)NC(=O)[C@H](CCCCN)NC(=O)[C@H](CCCCN)NC(=O)[C@H](Cc2ccc(O)cc2)NC(=O)[C@H](CC(N)=O)NC(=O)[C@H](CC(C)C)NC1=O — lowest effective concentration (AsPC-1 (KRAS G12D); ERK phosphorylation, Western blot, measured: p-ERK; 48 h): ≤ 10 µM
CCN(C(=O)c1cc(F)ccc1Oc1nncnc1N1CCC2(C1)CN([C@H](CCCN(C)CCOC)C(C)C)C2)C(C)C — GI50 (Kasumi 1; cell growth or viability; 7 days): > 10000 nM
C=CC(=O)N1[C@H](c2ccc3c(c2)OCO3)c2[nH]c3ccccc3c2C[C@@H]1C(=O)NC1CC1 — neuron degeneration (rat DRG neurons; 0.1235 µM, 48 h, added: vincristine 40 nM): 64.3% and 63.6%
COc1ccc(N(CCO)S(=O)(=O)C2CC3OC2C(c2ccc(O)cc2)=C3c2ccc(O)cc2)cc1 (stereo not drawn) — Emax (MCF7 3xERE-luc, steroid-deprived; ERE luciferase reporter, agonist; reference: vehicle): 3.7%
Cc1cc(Cl)cc(-c2ccnc3cc(CN4C(=O)C5C(C4=O)C5(C)C)sc23)c1C[C@@H]1CNCCO1 (stereo partly drawn) — cells in G2/M phase (CHP-212 parental (wild-type USP7); PI flow cytometry; 0.3 µM, 24 h): 15.5% and 13.9% and 13.5%
CN1CCN(C(=O)c2ccc(-c3cc4c(N5CCC[C@H](C(=O)NCc6ccc(OC(F)(F)F)cc6)C5)ncnc4[nH]3)cc2)CC1 — inhibition (KARPAS-299; cell growth or viability, MTT; 5 µg/mL, 72 h): 88.8%
CN(C)Cc1nc(Nc2ccc(-c3cnc4cc(F)ccn34)c3c2C(=O)NC3)ccc1C1CCOC1 (stereo not drawn) — EC50 (human CD4 T cells; cytokine induction, measured: GM-CSF; added: anti-CD3/CD28): 16 nM
Cc1cc(NC2CCN(C)CC2)ccc1-c1cc2c(N3CCC[C@H](C(=O)NCc4ccc(OC(F)(F)F)cc4)C3)ncnc2[nH]1 — inhibition (KARPAS-299; cell growth or viability, MTT; 0.00032 µg/mL, 72 h): 39.4%
Cn1ncc2cc(-c3cncc(Cl)c3N3CCC4(CCNC4=O)CC3)ccc21 — log2 fold change (LS174T; gene expression, microarray, measured: INHBB mRNA; concentration not given, 24 h; reference: untreated cells): 2.14
C[C@@H]1CN(c2cc(=O)n(C)c3ccc(C#N)nc23)[C@@H](C)CN1Cc1ccc(S(=O)(=O)n2cnc(C3CC3)n2)cc1 — cell proliferation (CT2A-luc; concentration not given, without immune cells; reference: DMSO): no effect
CO[C@@H]1[C@@H](OC(N)=O)[C@@H](O)[C@H](Oc2ccc3c(O)c(NC(=O)c4ccc(O)c(CC=C(C)C)c4)c(=O)oc3c2C)OC1(C)C — colony survival (HCT-116 BRCA2 wild-type; 250 µM, replicate A; reference: untreated): 77.9%
COc1cc(N2CCN(C(=O)C3CCCN3)CC2)ccc1Nc1ncc(Cl)c(Nc2ccccc2P(C)(C)=O)n1 (stereo not drawn) — late apoptotic cells (Ba/F3 EML4-ALK; flow cytometry; concentration not given, 24 h): 16.5% and 17.7% and 16.7%
Cc1ncsc1-c1ccc(C(C)NC(=O)C2CC(O)CN2C(=O)C(NC(=O)CCCCCCCCCCN2CCCC(Nc3ncc(Cl)c(Nc4ccccc4S(=O)(=O)C(C)C)n3)C2)C(C)(C)C)cc1 (stereo not drawn) — log2 fold change (22Rv1; RNA-seq, measured: SCYL3 mRNA; concentration not given; reference: DMSO): -1.32
CC[C@H](C)[C@H](NC(=O)[C@H](CCC(N)=O)NC(=O)[C@H](CC(C)C)NC(=O)[C@H](CC(N)=O)NC(=O)[C@H](Cc1c[nH]cn1)NC(=O)[C@H](CCCCN)NC(=O)[C@@H](NC(=O)[C@@H](N)C(C)C)[C@@H](C)O)C(=O)N[C@@H](COP(=O)(O)O)C(=O)N[C@@H](CCC(N)=O)C(=O)N[C@@H](COP(=O)(O)O)C(=O)N[C@@H](Cc1ccc(O)cc1)C(=O)O — ALP activity (MC3T3; 300 µM, 12 days, added: BMP2 50 ng/mL; reference: BMP2 alone): no effect
CCCCCCc1cccc(C(O)CC(CO)NC(=O)CCCCCCCCCCNC(C)=O)c1 (stereo not drawn) — ceramide level (HeLa; CERT activity, HPLC-MS/MS lipidomics, measured: ceramide 22; 1 µM, 24 h, not cell-number normalised): 2010 pmol/sample and 1750 pmol/sample
CCCCN1C(=O)c2cccc3c(NCCCCCN4CCOCC4)ccc(c23)C1=O — Pearson's correlation coefficient (BHK-21; confocal microscopy, measured: lysosome colocalisation; 0.2 µM, added: 0.3 µM LysoTracker Deep Red): 0.87 ± 0.04
COc1cc(/C=C/C(=O)/C=C(O)/C=C/c2ccc(OCC(=O)N3CCOCCOCCOCCOCCOCC3)c(OC)c2)ccc1OCC(=O)N1CCOCCOCCOCCOCCOCC1 — inhibition (COS-7; cell growth or viability, SRB; 5 µM): 44.7%
CNS(=O)(=O)Nc1nccc(Cc2c(C)c3ccc(Oc4ncccc4F)cc3oc2=O)c1F — IC50 (SW-403; cell viability; 7 days): 7.35 nM
CCNc1cc2c(cc1C)C1(c3cc(C)c(NCC)cc3O2)c2ccccc2C(=O)N1N=Cc1c[c-]c(-c2ccccn2)cc1.Cc1c(C)c(-c2ccc(-c3ccccc3)cc2)[c-](C)c1C.[Cl-].[Ir+3] — JC-1 aggregate cells (A549; flow cytometry; 2.0×IC50, 24 h): 96.14 ± 0.27%
C=C1C(=O)OC2C1CCC(C)(O)C13C=CC(C)(C21)C1(C3)C(=O)OC2C3C(C)=CCC3(O)C(C)=CC(OC(C)=O)C21 (stereo not drawn) — maximum inhibition (AML12 mouse hepatocytes; lipid accumulation, Nile Red staining; maximum safe concentration, 24 h, added: palmitic acid/oleic acid): 16.9 ± 2.57%
CCN(CC)CCNC(=S)Nc1ccc2nc(N3CCN(CC)CC3)cc(C)c2c1 — GFP-positive cells (U2OS SSA-GFP reporter; single-strand annealing, flow cytometry; 30 µM): 2.43%
COC(=O)c1cc(NC2=NC(=O)C(=Cc3ccc(N(C)C)cc3)S2)ccc1OC(C)=O — fold change (A549; measured: BARD1 mRNA; 2.93 µM (IC50), 24 h; reference: DMSO): 0.0451
COc1cc(N2CCOCC2)ccc1Nc1ncc(Cl)c(Nc2ccccc2NS(C)(=O)=O)n1 — phosphorylation (PC-9 del19/T790M/C797S; inhibitor, western blot, measured: EGFR, AKT, ERK; concentration not given, 5 h): inhibited
CCOc1cncc(-c2ccc(NC(=O)C3(c4ccnc(NS(=O)(=O)C5CC5)n4)CCOCC3)nc2)n1 — IC50 (RCH-ACV; cell proliferation, CellTiter-Glo; 72 h, lymphoid haematological cancer): 24 nM
Cc1cc(NC(=O)c2cccc(NC(=O)/C(C#N)=C/C(C)(C)C)c2)ccc1Nc1nccc(-c2cccnc2)n1 — reporter activity (HEK293 AP1 reporter cells; AP-1 reporter gene, inhibitor; 3 µM, 6 h, unit not given, added: PMA; reference: PMA alone): 0.86

Repeated from above:
CCN(C(=O)c1cc(F)ccc1Oc1nncnc1N1CCC2(C1)CN([C@H](CCCN(C)CCOC)C(C)C)C2)C(C)C — GI50 (Kasumi 1; cell growth or viability; 7 days): > 10000 nM
C=CC(=O)N1[C@H](c2ccc3c(c2)OCO3)c2[nH]c3ccccc3c2C[C@@H]1C(=O)NC1CC1 — neuron degeneration (rat DRG neurons; 0.1235 µM, 48 h, added: vincristine 40 nM): 64.3% and 63.6%
COc1ccc(N(CCO)S(=O)(=O)C2CC3OC2C(c2ccc(O)cc2)=C3c2ccc(O)cc2)cc1 (stereo not drawn) — Emax (MCF7 3xERE-luc, steroid-deprived; ERE luciferase reporter, agonist; reference: vehicle): 3.7%
Cc1cc(Cl)cc(-c2ccnc3cc(CN4C(=O)C5C(C4=O)C5(C)C)sc23)c1C[C@@H]1CNCCO1 (stereo partly drawn) — cells in G2/M phase (CHP-212 parental (wild-type USP7); PI flow cytometry; 0.3 µM, 24 h): 15.5% and 13.9% and 13.5%
